Published values gathered from unrelated publications.
Numbered parts are unrelated; each lists some results of a single study.

Sample 1 — method: RNA Bind-n-Seq; form: RNA; matrix: in vitro; concentration: not given; baseline: input RNA pool; direction: higher = stronger binding; endpoint: bound/input enrichment
Target: RING finger protein unkempt homolog, zinc fingers 1-6, GST-SBP tag (UNK, Homo sapiens, UniProt Q9C0B0, residues 30-357)
Notes: RNA with constant flanks, human-mouse chimeric sites, ends assumed
All sequences stand within: GGGAGUUCUACAGUCCGACGAUC … CAACAGAGGAUUGAGCAUCA
Construct (chain): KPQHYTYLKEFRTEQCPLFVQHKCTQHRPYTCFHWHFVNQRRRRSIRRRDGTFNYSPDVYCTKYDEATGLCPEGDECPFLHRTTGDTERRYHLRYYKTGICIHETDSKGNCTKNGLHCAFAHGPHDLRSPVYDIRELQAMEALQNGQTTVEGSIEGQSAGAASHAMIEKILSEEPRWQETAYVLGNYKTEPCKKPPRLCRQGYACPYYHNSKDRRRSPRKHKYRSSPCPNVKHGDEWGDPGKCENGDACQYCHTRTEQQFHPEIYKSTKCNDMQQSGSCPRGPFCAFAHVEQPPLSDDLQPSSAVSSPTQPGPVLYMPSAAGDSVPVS
CUGUGUGUGCUGAAUAAAUGGCUUGUAAAGAAGUUUUCCAAGUUGUAAACCCAUGCUGUUAUUAUAGUUGCUGCAAAAUGUUCUUCCUGAUAUUGAUUUUAUUUGUUCUGACUCUCCCUC: 0.999 ratio
UCUUUAAAAAAAAAAUUACCUUUUCUGACAGUGCUUUCCCUCCCAUAGAUCCACGUUCAAGCUCAAAGAGCAAAGGCUCCGCAAACAUCUGAUGAUGCUGAUGAAGAAAGAUUUCUGAGA: 1.22 ratio
CUCAGAGAUGUGGCAUAUCAGUAUGUGAAAAAGGGGGCUCGAAUUUAUGUGGAAGGGAAAGUGGACUAUGGCGAGUACAUGGAUAAAAACAAUGUGAGGCGACAAGCAACAACAAUCAUA: 0.331 ratio
CUUUUUGAAUCUUUCAAGAGUUUUGAAGGUCUCUUUUAUUUUCUGGGGUCCAUUGUUAACUUUAGUCAGGACCCAGAUGUGCACUUUAAAUAUAUUCAGGCGGCUUGCAAGACUGGGCAA: 0.783 ratio
CAACCUCAGAGCCCAGACUUCCUGGAUAUUACCAACCCUAAAGCGGUAUUAGAAAAUGCAUUGAGAAACUUUGCCUGUCUGACGACUGGAGAUGUGAUUGCUAUCAACUACAAUGAGAAG: 0.359 ratio
CGGAGCCCCUCCCUCUCACAGGCCCAAGAUAUAACCCACCAGUGCCUUUUGUCUUCCUGUCAGCUCUGUCAAUCACGCCUGUCCUCUCACGCCCACACUCCCCAGCCAAAGUGGGGAGGG: 0.379 ratio
AUUGUUGAAGCGAAUCCACUCCUAGAAGCAUUUGGAAAUGCAAAGACUGUUCGCAACAAUAAUAGCAGUCGAUUUGGAAAAUUUGUAGAAAUACAUUUCAAUGAAAAGAGUUCGGUUGUU: 0.168 ratio
UUCAAAGAAAAGGGCAGCUGUGUCAUUUCAUAAGUAACUCUGGGGGAUAAGUGGAAGGUUCUUUUGUUUAAUUUUCCCCCAGAUAAAGCCAAAGUGUGUGUUGAAGAACUGAGAAAAAAU: 0.0825 ratio
GUGUCCUUUCAACUUAAUAAAUCACUGAGGCAUCUCUACUGUUCUGUGAGCAUCAGGACUGUAGCGCUGUGUCACCACAUGAGAGUUCAGAAGCAGCCUUUCUGUGGAGAGUGAGAAUGA: 0.179 ratio
AGAAAGCAAAACUUGGAAAGAUUUAAGAAAGGAGACGUAAGAUUCUUGAUUUGCACAGAUGUAGCUGCUAGAGGGAUUGAUAUCCAUGGCGUUCCUUAUGUGAUCAACGUCACCCUGCCU: 0.276 ratio
AGAAAGCAAAACUUGGAAAGAUUUAAGAAAGGAGACGUAAGAUUCUUGAUUUGCACAGAUGUAGCUGCUAGAGGGAUUGAUAUCCAUGGCGUUCCUUAUGUGAUCAAUGUCACUCUGCCU: 0.154 ratio

Sample 2 — method: RNA Bind-n-Seq; form: RNA; matrix: in vitro; concentration: 365 nM; baseline: no-protein control; direction: higher = stronger binding; endpoint: RBNS enrichment (R)
Target: RNA binding protein fox-1 homolog 2, RRM domain, GST-SBP tag (RBFOX2, Homo sapiens, UniProt O43251-10, residues 100-194)
Notes: natural RNA segment, single round, ends assumed
All sequences stand within: GGGAGUUCUACAGUCCGACGAUC … UGGAAUUCUCGGGUGCCAA
Construct (chain): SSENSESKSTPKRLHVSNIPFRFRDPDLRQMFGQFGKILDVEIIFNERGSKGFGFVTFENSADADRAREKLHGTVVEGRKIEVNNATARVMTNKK
UCUAAUCCAUGUAGCUUUUUGUUCAAUGACUUGAUCAUCUGCUUCCUUUUUGAAUUUUUAACAGAUAGUAAGUAAAUUUGGUGGUUUUUUCCCCUGGGUCAGUGAUGGAA: 0.36
UGUGCAUUUUCACCUGAGGUUUCCCUGCAUCCCUGCAGUGCCAAAGCCCCACCUUCAGGGACCACCUGGAAUGUGUGAGGGGCUGACAGCACAGUAACGUGCAUACAUAU: 0.408
UCCGUAUUGUGAAGGAACCUCUUAAAUGGAACACUAAAAGACUUGAAACUGAGGGGCAAGAUAACCCCCACAUGACACGUGACAUCACUUUGGGGACAGCCCAGUUGCCA: 0.653
UAAUGCUCCCAUCUCCUGAUUUCUCUGAACAGAAAACAAAAGAGAGAAUGAGGGAAAUUGCUAUUUUAUUUGUAUUCAUGAACUUGGCUGUAAUCAGUUAUGCCGUAUAG: 4.89
UCCUGUUGUCUGAAACCUGGAGCUAAGCAGGUUGUCCUGUCACAAGCUCUGGGGACUGAGCUCCAUGCUCCAACCCCACCCUCUUCUGACCUUUGUUCUCCAGACCUGAC: 0.507
UUUGCAGCCUCAUAGGGUGGGAUACAGCAGCUUUUUUUGCAGUUAUCCACACUCACAUUUCAGAGUCCUGACUCUCAAGGAACCACUGGUUUUUGGGAUAGAACUUGGGC: 0.244
AUUCACCACAGACUUUAGCUUUCUGAGCAAGAGGAUUUUGCGUCAGAGAAAUGUCUGUCCAUUUUUAUUCAGGGGAAACUUGAUUUGAGAUUUUUAUGCCUGUGACUUCC: 0.556
UCAGUAUCUUUUCCAGUGUUUGCUACCUAAGAUCCCAUUGGGGUAAAAAUAUAACUCAGAUUUCACUGUUAGGAAUAGUUCUGUUUGUGAGCAACUUACUUCCUUUCAUC: 1.18
GCCUGCAUGACCAGCUGGCUUCAGUGAUUUCUCCGUUUCCCUCUUUAGUUUCUAGGAAGCCACUGUGCUGUGCUAAGAAGCAGUUGGUCAGGAGGGCUCAGCCCAGGAGC: 0.509
AUUGAAUUUAUGCAUUAGUCUGGUGAUUUCAGUUCUGUGAAAUAUUUUGGGAUCUAUACCAAUUAAACAUUUUCAUAGUUCUGCCUAUUGUCCUUCCCUGAGGCUCCAUU: 0.325
UGAGGGCUCCAAGGCCGGAAGUCCUCCCUUCCUCCCUGUCUGCUCUCAUGCUCUCCGCCCUGUUCUAUCUGGCACUUCCCAGGCACAGAGGCCCCUUCAGGUUCCUGGGU: 0.313
CAAAUGGAGUCCUUUUGUAUUACUCUCUAUGGGAUAGCACAAGAUAGCUCUGUAGGAUAGUCUCAGUUACUAGGGUAAUUUCUCAAUGAAGCACAUGCCUGUUUACGAUU: 1.28

Sample 3 — method: protein binding microarray; form: double-stranded DNA, one strand shown; matrix: in vitro; concentration: not given; baseline: not given; direction: higher = stronger binding; endpoint: E-score
Target: Histone acetyltransferase KAT6A, winged helix 2, GST fusion (KAT6A, Homo sapiens, UniProt Q92794, residues 85-181)
Notes: 8-mer, flanks averaged, mean of 2 arrays, mostly near background
Construct (chain): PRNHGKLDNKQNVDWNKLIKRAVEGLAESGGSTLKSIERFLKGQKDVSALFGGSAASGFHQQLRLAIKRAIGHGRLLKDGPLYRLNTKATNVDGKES
CTTAGCGC: 0.109
GATTAACA: 0.0835
TAAGGGGA: -0.147
ATCCACAG: 0.0548
CGAATACG: 0.00499
TGAAAAAA: 0.208
GCAGCTCA: -0.0465
GACTCGCC: -0.0763
GATTCGAC: 0.0705
GATGGCAC: -0.125
ATAGTGTA: -0.0956
TCCCAACA: 0.0858
AATACTTG: -0.0372
GAAATGTA: -0.0316
GCGCTACA: 0.0304
CATCAATG: -0.162
CGCATAGC: 0.0573
CGACAGCC: -0.0777
AGCCGCAC: 0.157
AAGACGAA: 0.135
ATCCTCAC: 0.0109
CCCGCCCG: 0.22
ATACGGGG: -0.0704
ACGATATG: -0.0918
AGTAAGGA: -0.114

Sample 4 — method: aptamer microarray, sandwich; form: DNA with 2'F-ANA; matrix: in vitro; concentration: 200 nM; with: Cy3 exosite-II aptamer, 400 nM; direction: higher = stronger binding; endpoint: mean fluorescence intensity; strand: GGTTGGTGTGGTTGG
Target: Prothrombin, mature alpha-thrombin (F2, Homo sapiens, UniProt P00734)
Notes: whole 15-mer aptamer, many near background
2'F-ANA at 1 2 4 8 10 14 15: 44.9 a.u.
2'F-ANA at 1 4 6 7 8 9 13 15: 82.4 a.u.
2'F-ANA at 3 6 7 10 11 12 13 15: 440 a.u.
2'F-ANA at 1 4 6 8 10 12 13 14 15: 47.7 a.u.
2'F-ANA at 7 8 9 10 11: 213 a.u.
2'F-ANA at 1 3 5 6 9 10 13 15: 45.4 a.u.
2'F-ANA at 2 3 4 7 9 13 14 15: 259 a.u.
2'F-ANA at 1 3 6 7 8 10: 86.4 a.u.
2'F-ANA at 1 2 5 7 8 11 12: 104 a.u.
2'F-ANA at 1 3 7 10 11 12 15: 124 a.u.
2'F-ANA at 1 3 4 5 9 11 12 15: 95.7 a.u.
2'F-ANA at 1 3 5 6 8 9 10 13: 45.7 a.u.
2'F-ANA at 1 2 4 6 7 8 10 13: 49.2 a.u.
2'F-ANA at 4 9 10 11 13 15: 113 a.u.
2'F-ANA at 1 3 4 5 6 7 9 12 13 15: 108 a.u.
2'F-ANA at 1 2 8 11 12: 359 a.u.
2'F-ANA at 3 5 6 8 9 10 11 12 15: 89.1 a.u.
2'F-ANA at 3 5 7 8 10 11 13: 57.8 a.u.

Sample 5 — method: universal PBM; form: double-stranded DNA, one strand shown; matrix: in vitro; concentration: 600 nM; direction: higher = stronger binding; endpoint: E-score
Target: Sal-like protein 4, full length isoform A (SALL4, Homo sapiens, UniProt Q9UJQ4, residues 1-1053)
Chain of UniProt Q9UJQ4 (whole entry, looked up): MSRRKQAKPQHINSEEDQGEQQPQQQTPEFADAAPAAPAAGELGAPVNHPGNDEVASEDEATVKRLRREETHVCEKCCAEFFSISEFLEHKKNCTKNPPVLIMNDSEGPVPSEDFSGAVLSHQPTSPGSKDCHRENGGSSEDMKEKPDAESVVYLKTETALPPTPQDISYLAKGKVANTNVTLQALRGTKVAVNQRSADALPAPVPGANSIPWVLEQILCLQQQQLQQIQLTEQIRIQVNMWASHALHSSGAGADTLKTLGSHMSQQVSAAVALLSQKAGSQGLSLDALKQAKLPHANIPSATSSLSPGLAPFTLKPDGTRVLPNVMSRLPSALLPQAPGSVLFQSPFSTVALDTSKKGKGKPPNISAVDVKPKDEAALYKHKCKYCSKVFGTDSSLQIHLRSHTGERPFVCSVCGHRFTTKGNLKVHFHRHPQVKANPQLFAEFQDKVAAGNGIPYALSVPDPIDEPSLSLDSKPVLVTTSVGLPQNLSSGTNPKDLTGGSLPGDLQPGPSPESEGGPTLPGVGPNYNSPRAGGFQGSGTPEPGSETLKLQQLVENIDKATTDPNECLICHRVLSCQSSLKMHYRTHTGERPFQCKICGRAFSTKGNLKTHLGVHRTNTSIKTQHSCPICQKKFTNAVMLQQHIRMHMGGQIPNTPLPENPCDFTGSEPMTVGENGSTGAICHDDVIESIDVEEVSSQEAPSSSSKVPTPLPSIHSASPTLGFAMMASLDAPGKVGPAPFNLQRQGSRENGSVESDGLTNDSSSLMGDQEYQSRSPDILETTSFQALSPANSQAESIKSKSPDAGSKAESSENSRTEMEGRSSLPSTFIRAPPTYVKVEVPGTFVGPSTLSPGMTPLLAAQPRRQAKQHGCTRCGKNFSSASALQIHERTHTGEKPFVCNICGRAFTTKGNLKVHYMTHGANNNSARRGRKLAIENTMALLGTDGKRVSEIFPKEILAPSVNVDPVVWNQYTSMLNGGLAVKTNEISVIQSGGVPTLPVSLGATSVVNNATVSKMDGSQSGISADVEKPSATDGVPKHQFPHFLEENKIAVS
Notes: 8-mer, flanks averaged, mean of replicates
GCGCCGCA: -0.28
ACCCCTCT: -0.286
AACACTCC: 0.0865
CATCAAGC: -0.0798
GTAAACCA: 0.0346
CAAGCGGC: -0.171
ACATAGAC: 0.11
GCCGCCCA: -0.435
GATTAAGC: 0.142
CACTTGAG: -0.138
CCACTGGC: -0.259
ATCACGAC: 0.00809
TACGAGTA: 0.138
GGCCATAA: 0.0882
GGTTCGCA: -0.173
CTAAGACA: 0.107
GTATTGCA: 0.0209
CCAAGGAG: -0.179
CCGGAGCG: -0.225
GTTTGGTA: 0.201
ATTCACAG: 0.101
CATCGATA: 0.213

A few entries again (sample 3):
AATACTTG: -0.0372
GAAATGTA: -0.0316
GCGCTACA: 0.0304
CATCAATG: -0.162
CGCATAGC: 0.0573
CGACAGCC: -0.0777
AGCCGCAC: 0.157
AAGACGAA: 0.135
ATCCTCAC: 0.0109
CCCGCCCG: 0.22
ATACGGGG: -0.0704
ACGATATG: -0.0918
AGTAAGGA: -0.114
